Measurements of several laboratories.
Each numbered part is a random draw from the data of one study; scales do not carry over between parts. Positions count from the first letter of the parent shown.

Sample 1 — method: competition protein-binding microarray; molecule type: double-stranded DNA, one strand shown; medium: in vitro; tested at: 2 µM; with: Pho4 competitor, 0.05 µM; direction: higher = stronger binding; endpoint: fluorescence intensity
Target: Centromere-binding protein 1, full length, His-tagged (CBF1, Saccharomyces cerevisiae, UniProt P17106, residues 1-351)
Chain of UniProt P17106 (whole entry, looked up): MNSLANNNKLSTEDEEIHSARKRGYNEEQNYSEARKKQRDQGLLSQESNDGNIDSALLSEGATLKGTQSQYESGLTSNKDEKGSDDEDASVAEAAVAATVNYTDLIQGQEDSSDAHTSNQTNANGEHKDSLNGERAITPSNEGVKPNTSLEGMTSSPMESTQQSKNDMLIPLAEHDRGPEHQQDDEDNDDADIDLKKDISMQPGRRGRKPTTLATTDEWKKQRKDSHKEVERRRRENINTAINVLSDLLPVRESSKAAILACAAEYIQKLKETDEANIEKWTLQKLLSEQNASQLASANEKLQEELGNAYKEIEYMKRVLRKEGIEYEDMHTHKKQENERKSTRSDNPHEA
Notes: whole 60-bp probe, lowest competitor level
Oligonucleotide = AATGGAACAGATTAGCACGTGAACGAGAAAGCAACCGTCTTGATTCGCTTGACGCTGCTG; value = 1910 a.u.
Oligonucleotide = GCCGAGGGTAACTTCCACGGGAGAACCTTCGGTGCTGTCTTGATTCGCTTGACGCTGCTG; value = 53.2 a.u.
Oligonucleotide = CTCAAGCTTATGGTTCACGTTATAGAACACAGGAGAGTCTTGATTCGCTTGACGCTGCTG; value = 109 a.u.
Oligonucleotide = CTATCCCTTTCTTTGCACGTGATGGTAAGAATCGTAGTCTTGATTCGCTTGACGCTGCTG; value = 5990 a.u.
Oligonucleotide = CGGGGTTAAGTTTGATCTGTGGGTGGCTTGCAGCAGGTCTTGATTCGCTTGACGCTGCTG; value = 72.2 a.u.
Oligonucleotide = GTCTTGTCTCATTGAGAGGTGGGTGTCCCCACTTCAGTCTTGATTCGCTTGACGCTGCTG; value = 68.8 a.u.
Oligonucleotide = CGTCCTAGTGATTGTCACCATACTTCCATGAGGAAGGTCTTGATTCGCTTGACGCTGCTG; value = 92.8 a.u.
Oligonucleotide = CTTCTGTAAATTTGTCACCTAACTTGACGCGCCCCGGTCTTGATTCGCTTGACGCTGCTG; value = 76.2 a.u.
Oligonucleotide = CTTCTGTAAATTTGTGCGGTGGGTGGACGCGCCCCGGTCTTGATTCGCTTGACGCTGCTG; value = 84.9 a.u.
Oligonucleotide = AAATTACTAAGTTGACTTGTGGGTGACGCCGTATGAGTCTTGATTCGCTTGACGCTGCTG; value = 78.1 a.u.

Sample 2 — target: CCNF, cyclin fold, Cln2 fusion (human); method: yeast growth competition, sequencing; medium: yeast; notes: strong parent motif; reference: not given; direction: higher = stronger binding; endpoint: normalised enrichment score
Starting sequence: E2F1 docking peptide (human); PPVKRRLDFETDH; partner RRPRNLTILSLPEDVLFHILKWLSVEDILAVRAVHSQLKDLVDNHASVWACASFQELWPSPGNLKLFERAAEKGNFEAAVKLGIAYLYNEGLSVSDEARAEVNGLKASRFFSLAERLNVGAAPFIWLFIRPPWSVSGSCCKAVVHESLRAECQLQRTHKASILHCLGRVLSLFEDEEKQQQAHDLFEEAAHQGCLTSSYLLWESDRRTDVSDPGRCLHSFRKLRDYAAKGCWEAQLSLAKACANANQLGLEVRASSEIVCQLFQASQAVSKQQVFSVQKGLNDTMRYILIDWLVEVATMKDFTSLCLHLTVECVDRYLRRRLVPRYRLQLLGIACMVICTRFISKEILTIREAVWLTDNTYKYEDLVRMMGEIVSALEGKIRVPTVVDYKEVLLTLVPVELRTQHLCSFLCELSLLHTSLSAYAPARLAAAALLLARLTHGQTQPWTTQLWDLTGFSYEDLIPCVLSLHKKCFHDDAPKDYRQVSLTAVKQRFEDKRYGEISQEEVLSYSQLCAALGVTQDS
Substitution = L7C; value = 1.41
Substitution = L7Q; value = 0.23
Substitution = D12F; value = 7.97
Substitution = F9T; value = 1.89
Substitution = L7P; value = 0.0789
Substitution = V3N; value = 2.91
Substitution = R5Y; value = 0.365
Substitution = R5N; value = 0.439
Substitution = P2K; value = 8.37

Sample 3 — method: universal PBM; molecule type: double-stranded DNA, one strand shown; medium: in vitro; tested at: 600 nM; direction: higher = stronger binding; endpoint: E-score
Target: Sal-like protein 4, full length isoform A (SALL4, Homo sapiens, UniProt Q9UJQ4, residues 1-1053)
Chain of UniProt Q9UJQ4 (whole entry, looked up): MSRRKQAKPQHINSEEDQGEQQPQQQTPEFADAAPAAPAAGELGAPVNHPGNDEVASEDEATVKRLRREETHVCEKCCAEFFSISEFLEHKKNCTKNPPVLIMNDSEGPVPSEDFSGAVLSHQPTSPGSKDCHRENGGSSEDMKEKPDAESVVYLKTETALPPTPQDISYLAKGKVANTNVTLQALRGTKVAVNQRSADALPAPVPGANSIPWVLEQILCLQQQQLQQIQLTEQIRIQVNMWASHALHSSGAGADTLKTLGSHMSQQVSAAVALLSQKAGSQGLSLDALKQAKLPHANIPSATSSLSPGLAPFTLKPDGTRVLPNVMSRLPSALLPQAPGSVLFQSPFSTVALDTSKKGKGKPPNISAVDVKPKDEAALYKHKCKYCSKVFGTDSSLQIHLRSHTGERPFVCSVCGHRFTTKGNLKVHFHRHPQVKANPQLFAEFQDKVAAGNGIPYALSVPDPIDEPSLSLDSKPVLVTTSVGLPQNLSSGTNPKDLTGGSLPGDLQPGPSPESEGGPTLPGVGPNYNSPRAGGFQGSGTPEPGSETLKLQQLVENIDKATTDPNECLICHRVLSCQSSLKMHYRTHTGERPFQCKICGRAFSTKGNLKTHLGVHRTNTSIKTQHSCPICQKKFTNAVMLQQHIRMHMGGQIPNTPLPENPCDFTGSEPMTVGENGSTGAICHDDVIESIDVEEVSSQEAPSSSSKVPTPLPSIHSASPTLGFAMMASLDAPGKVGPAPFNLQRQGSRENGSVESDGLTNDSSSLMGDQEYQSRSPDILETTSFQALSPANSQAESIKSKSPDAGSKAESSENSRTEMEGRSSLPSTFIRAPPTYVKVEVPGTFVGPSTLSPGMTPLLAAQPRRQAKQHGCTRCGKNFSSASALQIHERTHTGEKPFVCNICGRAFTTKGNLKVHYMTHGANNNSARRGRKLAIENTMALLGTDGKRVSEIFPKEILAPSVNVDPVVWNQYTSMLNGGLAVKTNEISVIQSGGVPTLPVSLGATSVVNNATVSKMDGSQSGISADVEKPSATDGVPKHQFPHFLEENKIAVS
Notes: 8-mer, flanks averaged, mean of replicates
Oligonucleotide = ACGAGGAG; value = -0.0859
Oligonucleotide = CTACCCAG; value = -0.105
Oligonucleotide = AACGCGCC; value = -0.204
Oligonucleotide = ACCAGGCA; value = -0.197
Oligonucleotide = GGCCTAAA; value = -0.142
Oligonucleotide = ACCCACGA; value = -0.248
Oligonucleotide = CTCTAGAA; value = 0.0117
Oligonucleotide = CGTTGTAG; value = -0.00487
Oligonucleotide = AAAGGCCT; value = -0.169
Oligonucleotide = GGGCAGTA; value = -0.239

Further values, each from its own experiment
Substance = PhoQ, residues 284 288 289 292 302 303 SLANIV; target = PhoP, residues 12 14 15 18 19 NQFFI (Escherichia coli, UniProt P23836); test = Sort-seq, measured: YFP reporter; system = E. coli; conditions = PhoQ-PhoP variant library, with: 10 µM Mg2+; scale = reference: high Mg2+ state, higher = stronger signaling; endpoint = fold induction; value = 18.2
